Assay results collected from several papers.
± marks the error that the study gave.
Ppard: Peroxisome proliferator-activated receptor delta (Ppard, Mus musculus, UniProt P35396)
Chain of UniProt P35396 (whole entry, looked up): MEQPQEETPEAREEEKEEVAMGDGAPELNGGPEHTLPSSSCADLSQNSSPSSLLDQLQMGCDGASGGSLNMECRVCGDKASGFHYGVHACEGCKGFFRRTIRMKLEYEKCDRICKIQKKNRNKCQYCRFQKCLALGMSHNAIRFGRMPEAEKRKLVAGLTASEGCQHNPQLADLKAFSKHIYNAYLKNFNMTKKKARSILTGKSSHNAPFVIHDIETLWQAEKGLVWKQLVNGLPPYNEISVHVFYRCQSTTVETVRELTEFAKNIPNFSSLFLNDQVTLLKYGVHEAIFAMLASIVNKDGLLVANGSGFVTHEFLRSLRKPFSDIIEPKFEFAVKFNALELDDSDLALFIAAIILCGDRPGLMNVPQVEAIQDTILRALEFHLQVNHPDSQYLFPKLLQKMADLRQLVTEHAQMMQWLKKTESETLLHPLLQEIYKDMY
ATP2A2: ATP2A2 (Sus scrofa, UniProt P11607)
Chain of UniProt P11607 (whole entry, looked up): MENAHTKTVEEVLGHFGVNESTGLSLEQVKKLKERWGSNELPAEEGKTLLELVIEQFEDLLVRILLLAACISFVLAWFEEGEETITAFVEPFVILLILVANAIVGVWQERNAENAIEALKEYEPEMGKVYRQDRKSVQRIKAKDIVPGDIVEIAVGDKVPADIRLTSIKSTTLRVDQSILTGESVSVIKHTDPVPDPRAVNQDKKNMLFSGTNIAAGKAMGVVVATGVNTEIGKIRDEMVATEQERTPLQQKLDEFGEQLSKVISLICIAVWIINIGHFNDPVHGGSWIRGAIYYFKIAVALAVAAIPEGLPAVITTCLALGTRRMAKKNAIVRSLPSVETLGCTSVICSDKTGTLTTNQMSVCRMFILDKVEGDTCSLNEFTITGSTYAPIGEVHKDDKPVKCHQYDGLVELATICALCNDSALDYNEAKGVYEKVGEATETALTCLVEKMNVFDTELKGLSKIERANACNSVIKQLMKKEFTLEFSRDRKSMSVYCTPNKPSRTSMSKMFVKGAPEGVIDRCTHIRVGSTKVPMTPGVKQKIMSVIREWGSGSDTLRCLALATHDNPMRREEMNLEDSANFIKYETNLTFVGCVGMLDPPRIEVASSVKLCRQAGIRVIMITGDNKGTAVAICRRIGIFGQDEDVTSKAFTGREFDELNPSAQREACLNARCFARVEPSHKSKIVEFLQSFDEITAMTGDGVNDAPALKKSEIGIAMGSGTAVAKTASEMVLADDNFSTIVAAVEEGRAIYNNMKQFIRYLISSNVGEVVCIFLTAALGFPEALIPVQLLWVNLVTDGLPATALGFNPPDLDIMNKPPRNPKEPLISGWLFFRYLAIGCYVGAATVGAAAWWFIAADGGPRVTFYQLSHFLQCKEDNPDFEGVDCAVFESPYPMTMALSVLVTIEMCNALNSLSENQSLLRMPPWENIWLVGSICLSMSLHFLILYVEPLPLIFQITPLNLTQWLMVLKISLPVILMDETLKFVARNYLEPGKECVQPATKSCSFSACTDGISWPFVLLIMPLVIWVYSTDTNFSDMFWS
Chain of UniProt Q05941 (whole entry, looked up): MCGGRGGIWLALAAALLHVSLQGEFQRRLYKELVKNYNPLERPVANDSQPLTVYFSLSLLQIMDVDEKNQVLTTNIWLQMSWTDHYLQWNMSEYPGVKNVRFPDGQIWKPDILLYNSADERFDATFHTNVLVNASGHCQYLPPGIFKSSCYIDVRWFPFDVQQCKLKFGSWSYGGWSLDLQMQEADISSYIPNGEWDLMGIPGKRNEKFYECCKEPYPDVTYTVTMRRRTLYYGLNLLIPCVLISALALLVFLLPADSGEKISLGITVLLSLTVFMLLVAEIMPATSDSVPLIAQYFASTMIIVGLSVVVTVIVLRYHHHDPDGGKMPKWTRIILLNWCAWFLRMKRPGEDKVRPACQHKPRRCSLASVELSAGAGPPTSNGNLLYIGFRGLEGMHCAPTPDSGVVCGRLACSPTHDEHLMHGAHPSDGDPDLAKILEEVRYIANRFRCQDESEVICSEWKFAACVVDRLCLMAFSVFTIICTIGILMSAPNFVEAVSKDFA
Chain of UniProt Q9H8M2 (whole entry, looked up): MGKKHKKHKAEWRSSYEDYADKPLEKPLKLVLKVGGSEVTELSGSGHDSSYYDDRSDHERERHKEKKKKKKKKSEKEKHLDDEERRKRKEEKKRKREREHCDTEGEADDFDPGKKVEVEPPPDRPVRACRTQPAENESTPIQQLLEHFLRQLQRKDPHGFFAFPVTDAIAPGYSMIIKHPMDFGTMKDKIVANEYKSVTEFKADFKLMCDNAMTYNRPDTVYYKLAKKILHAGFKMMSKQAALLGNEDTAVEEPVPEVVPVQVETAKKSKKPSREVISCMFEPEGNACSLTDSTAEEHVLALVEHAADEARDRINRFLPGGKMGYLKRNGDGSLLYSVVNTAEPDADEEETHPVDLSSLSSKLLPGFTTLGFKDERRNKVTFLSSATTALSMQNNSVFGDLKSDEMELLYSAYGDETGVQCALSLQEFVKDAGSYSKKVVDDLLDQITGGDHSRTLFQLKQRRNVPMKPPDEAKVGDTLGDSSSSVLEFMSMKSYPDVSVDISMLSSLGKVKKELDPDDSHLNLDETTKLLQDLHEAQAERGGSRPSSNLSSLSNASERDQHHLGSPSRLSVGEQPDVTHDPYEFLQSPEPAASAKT
Chain of UniProt Q969F8 (whole entry, unmodified, looked up): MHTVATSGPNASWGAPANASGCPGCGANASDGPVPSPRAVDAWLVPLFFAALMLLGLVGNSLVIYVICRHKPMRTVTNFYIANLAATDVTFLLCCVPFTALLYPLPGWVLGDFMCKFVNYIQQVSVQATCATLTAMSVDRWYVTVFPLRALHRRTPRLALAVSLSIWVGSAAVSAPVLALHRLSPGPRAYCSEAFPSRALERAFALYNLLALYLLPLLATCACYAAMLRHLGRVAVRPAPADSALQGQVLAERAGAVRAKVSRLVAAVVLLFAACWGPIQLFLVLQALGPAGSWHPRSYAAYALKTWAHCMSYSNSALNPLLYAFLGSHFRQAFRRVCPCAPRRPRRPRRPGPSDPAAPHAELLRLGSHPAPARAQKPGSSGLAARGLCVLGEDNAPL
Chain of UniProt P35414 (whole entry, looked up): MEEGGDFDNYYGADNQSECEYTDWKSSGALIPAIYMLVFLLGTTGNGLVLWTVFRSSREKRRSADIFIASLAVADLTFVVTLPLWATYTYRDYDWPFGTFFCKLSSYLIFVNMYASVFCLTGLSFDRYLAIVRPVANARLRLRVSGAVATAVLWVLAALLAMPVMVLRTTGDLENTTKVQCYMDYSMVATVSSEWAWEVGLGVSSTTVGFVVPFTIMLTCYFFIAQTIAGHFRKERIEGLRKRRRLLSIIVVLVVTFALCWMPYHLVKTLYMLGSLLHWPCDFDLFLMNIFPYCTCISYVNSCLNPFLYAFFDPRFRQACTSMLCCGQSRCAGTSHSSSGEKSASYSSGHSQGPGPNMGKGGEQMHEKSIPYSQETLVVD
Chain of UniProt Q96RI1 (whole entry, looked up): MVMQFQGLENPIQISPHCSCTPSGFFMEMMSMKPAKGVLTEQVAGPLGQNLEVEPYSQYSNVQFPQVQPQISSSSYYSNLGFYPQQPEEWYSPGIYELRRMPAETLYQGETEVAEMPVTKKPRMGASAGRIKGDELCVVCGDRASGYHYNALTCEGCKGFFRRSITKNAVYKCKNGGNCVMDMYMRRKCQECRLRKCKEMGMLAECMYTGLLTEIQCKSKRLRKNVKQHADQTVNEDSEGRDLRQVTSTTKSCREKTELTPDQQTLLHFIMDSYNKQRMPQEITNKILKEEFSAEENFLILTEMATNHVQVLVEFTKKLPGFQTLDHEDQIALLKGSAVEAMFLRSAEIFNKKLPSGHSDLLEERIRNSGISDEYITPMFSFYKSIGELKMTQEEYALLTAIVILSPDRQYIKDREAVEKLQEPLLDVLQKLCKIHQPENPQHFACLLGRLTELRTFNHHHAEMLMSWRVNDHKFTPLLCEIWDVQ
Chain of UniProt P34995 (whole entry, unmodified, looked up): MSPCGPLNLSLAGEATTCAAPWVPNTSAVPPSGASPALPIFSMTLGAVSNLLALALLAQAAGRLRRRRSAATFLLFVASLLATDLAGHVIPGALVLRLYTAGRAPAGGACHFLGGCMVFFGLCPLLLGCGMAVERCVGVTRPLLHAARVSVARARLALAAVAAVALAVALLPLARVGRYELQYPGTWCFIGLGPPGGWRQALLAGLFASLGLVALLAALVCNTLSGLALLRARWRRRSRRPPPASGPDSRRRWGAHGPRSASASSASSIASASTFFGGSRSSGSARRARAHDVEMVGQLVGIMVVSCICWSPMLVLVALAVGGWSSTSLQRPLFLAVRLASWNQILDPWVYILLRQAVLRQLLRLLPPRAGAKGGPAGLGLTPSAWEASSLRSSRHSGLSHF
Chain of UniProt P35368 (whole entry, looked up): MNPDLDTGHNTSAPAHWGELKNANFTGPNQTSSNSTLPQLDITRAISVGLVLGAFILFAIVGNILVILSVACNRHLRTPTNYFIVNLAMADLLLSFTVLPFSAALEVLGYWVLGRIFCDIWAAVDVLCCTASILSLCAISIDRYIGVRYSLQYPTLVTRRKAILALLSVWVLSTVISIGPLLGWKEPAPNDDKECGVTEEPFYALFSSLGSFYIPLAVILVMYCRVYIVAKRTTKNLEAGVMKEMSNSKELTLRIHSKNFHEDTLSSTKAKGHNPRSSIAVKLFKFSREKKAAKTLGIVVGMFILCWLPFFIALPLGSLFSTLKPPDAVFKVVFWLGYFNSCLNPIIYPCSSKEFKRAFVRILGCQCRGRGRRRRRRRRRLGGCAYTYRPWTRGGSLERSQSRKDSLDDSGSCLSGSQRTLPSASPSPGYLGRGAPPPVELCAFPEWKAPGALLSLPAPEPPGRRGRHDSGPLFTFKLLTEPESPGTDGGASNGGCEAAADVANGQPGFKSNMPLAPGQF
Chain of UniProt P40337 (whole entry, looked up): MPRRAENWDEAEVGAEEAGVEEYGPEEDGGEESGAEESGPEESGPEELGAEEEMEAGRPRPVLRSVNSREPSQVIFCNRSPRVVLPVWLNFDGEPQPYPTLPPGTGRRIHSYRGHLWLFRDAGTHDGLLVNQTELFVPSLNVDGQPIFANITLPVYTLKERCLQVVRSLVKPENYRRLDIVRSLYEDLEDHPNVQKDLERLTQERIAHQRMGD

| Structure (SMILES) | target | assay | system | conditions | how to read | Emax [%] |
| --- | --- | --- | --- | --- | --- | --- |
| C[C@@H]1C[C@H]2O[C@@]3(O[C@@H]2C(C)(C)O)[C@H](O)[C@@]2(C)[C@@H]4CC[C@H]5C(C)(C)[C@@H](O[C@@H]6OC[C@@H](O)[C@H](O)[C@H]6O)CC[C@@]56C[C@@]46CC[C@]2(C)[C@@H]13 | Bile acid receptor, with PGC1α (NR1H4, Homo sapiens, UniProt Q96RI1) | reporter gene, agonist, mammalian two-hybrid | COS-7 co-transfected with RXR | – | baseline: GW4064 | 24.9 |
| Cc1ccc(NC(=O)/C=C/c2cccs2)cc1 | Chrna7 (Rattus norvegicus, UniProt Q05941) | ion current, positive modulator | – | added: acetylcholine 30 µM | baseline: control | 196 ± 14 |
| CCO[C@H](COc1ccc(C(F)(F)F)cc1)CSc1ccc(OCC(=O)O)c(C)c1 | Ppard | reporter gene, agonist, luciferase reporter | mouse | – | baseline: maximal control activation | 81 |
| CC[C@H](C)[C@H](NC(=O)[C@H](CCC(N)=O)NC(=O)[C@H](CCCNC(=N)N)NC(=O)[C@H](CO)NC(=O)[C@H](Cc1c[nH]cn1)NC(=O)[C@@H]1CCCN1C(=O)[C@H](C)NC(=O)[C@H](CO)NC(=O)[C@H](CC(C)C)NC(=O)CNC(=O)[C@@H]1CCCN1C(=O)[C@H](CCC(N)=O)NC(=O)[C@H](CCC(N)=O)NC(=O)[C@H](CCCNC(=N)N)NC(=O)[C@H](CO)NC(=O)CNC(=O)[C@H](CO)NC(=O)[C@H](CO)NC(=O)[C@H](CCC(=O)O)NC(=O)[C@@H]1CCCN1C(=O)[C@@H]1CCCN1C(=O)[C@@H]1CCCN1C(=O)[C@H](CO)NC(=O)[C@H](CC(C)C)NC(=O)[C@H](CO)NC(=O)[C@@H](NC(=O)CN)[C@@H](C)O)C(=O)N1CCC[C@H]1C(=O)N[C@@H](C)C(=O)N1CCC[C@H]1C(=O)N[C@@H](CCC(N)=O)C(=O)NCC(=O)N[C@@H](C)C(=O)N[C@H](C(=O)N[C@@H](CC(C)C)C(=O)N[C@H](C(=O)N[C@@H](CCC(N)=O)C(=O)N[C@@H](CCCNC(=N)N)C(=O)N[C@@H](CCC(=O)O)C(=O)N[C@@H](CCCCN)C(=O)N[C@@H](CC(=O)O)C(=O)N[C@@H](CC(C)C)C(=O)N1CCC[C@H]1C(=O)N[C@@H](CC(N)=O)C(=O)N[C@@H](Cc1ccc(O)cc1)C(=O)N[C@@H](CC(N)=O)C(=O)N[C@@H](Cc1c[nH]c2ccccc12)C(=O)N[C@@H](CC(N)=O)C(=O)N[C@@H](CO)C(=O)N[C@@H](Cc1ccccc1)C(=O)NCC(=O)N[C@@H](CC(C)C)C(=O)N[C@@H](CCCNC(=N)N)C(=O)N[C@@H](Cc1ccccc1)C(N)=O)C(C)C)C(C)C | KiSS-1 receptor (KISS1R, Homo sapiens, UniProt Q969F8, E193A) | IP1 accumulation, agonist, HTRF | HEK293 expressing E193A mutant | 1 h, 37 °C, low response, poor fit | – | 0.53 |
| c1ccc(CCCCCOCCc2ccc3[nH]cnc3c2)cc1 | ATP2A2 | ATPase Vmax increase, activator | pig microsomes | 0.1 to 50 µM | baseline: vehicle | ~17 |
| CSc1ccc(C(=O)/C=C/c2cc(C)c(OC(C)(C)C(=O)O)c(C)c2)cc1 | Ppard | reporter gene, agonist, luciferase reporter | mouse | – | baseline: maximal control activation | 67 |
| CCOCc1nc(O)c(-c2nnc(Cc3ccc(Cl)cn3)o2)c(O)c1-c1c(OC)cccc1OC | Apelin receptor (APLNR, Homo sapiens, UniProt P35414) | Gα13/PDZ–RhoGEF activation, agonist, BRET biosensor | HEK293 | – | – | 80 ± 7 |
| FC1(F)Oc2ccc(CCOCCCCCc3ccccc3)cc2O1 | ATP2A2 | ATPase Vmax increase, activator | pig microsomes | 0.1 to 50 µM | baseline: vehicle | ~16 |
| COc1cc(-c2cn(C)c(=O)c3cnccc23)cc(OC)c1CN1CCN(CCCCCOc2cc(-c3scnc3C)ccc2CNC(=O)[C@@H]2C[C@@H](O)CN2C(=O)[C@@H](NC(=O)C2(F)CC2)C(C)(C)C)CC1 | VHL/BRD9 (Homo sapiens, UniProt P40337+Q9H8M2) | BRD9-VHL ternary complex, NanoBiT | HEK293T | – | baseline: DMSO | 847 |
| CCCCCCCOCCc1ccc2[nH]cnc2c1 | ATP2A2 | ATPase Vmax increase, activator | pig microsomes | 0.1 to 50 µM | baseline: vehicle | 16.2 ± 2.9 |
| CCCCC[C@H](O)/C=C/[C@H]1[C@H](O)CC(=O)[C@@H]1C/C=C\CCCC(=O)O | PTGER1 (Homo sapiens, UniProt P34995, F189A) | IP1 accumulation, agonist | AD293 | 1 h, EP1 F189A mutant | – | 39.2 ± 4.45 |
| c1ccc(CCCCCOCCc2ccc3c(c2)CCN3)cc1 | ATP2A2 | ATPase Vmax increase, activator | pig microsomes | 0.1 to 50 µM | baseline: vehicle | ~44 |
| CNC[C@H](O)c1cccc(O)c1 | ADRA1B (Homo sapiens, UniProt P35368) | calcium mobilization, agonist | COS-7, stably expressing receptor | – | baseline: 3 µM ionomycin | ~80 |

Some of these lines once more:
| Structure (SMILES) | target | assay | system | conditions | how to read | Emax [%] |
| --- | --- | --- | --- | --- | --- | --- |
| c1ccc(CCCCCOCCc2ccc3[nH]cnc3c2)cc1 | ATP2A2 | ATPase Vmax increase, activator | pig microsomes | 0.1 to 50 µM | baseline: vehicle | ~17 |
| CSc1ccc(C(=O)/C=C/c2cc(C)c(OC(C)(C)C(=O)O)c(C)c2)cc1 | Ppard | reporter gene, agonist, luciferase reporter | mouse | – | baseline: maximal control activation | 67 |
